Measurements gathered from unrelated publications.
Each line is one published result; not all experiments were run side by side.

CC[C@H]1CN2CC[C@H]1C[C@@H]2[C@@H](O)c1ccnc2ccc(OC)cc12 — EC50 (SARS-CoV-2; viral replication, GFP plate reader screen; cell-based): 15.5 µM
COc1cccc2c1OCCCn1cc(nn1)CCN(Cc1ccc(C)s1)CCNC(=O)[C@H](Cc1ccccc1)NC2=O — Emax (Lassa mammarenavirus; viral replication; Huh-7; concentration not given): 89.4%
O=C(Nc1ccc(N2CCN(C(=O)c3cnccn3)CC2)nc1)c1c(Cl)cccc1Br — IC90 (Mycobacterium tuberculosis; bacterial growth; H37Ra-lux; 168 h): 3.82 µM
O=C1NCCCOc2cccc(c2)C2c3ccc(cc3CCN2C(=O)c2ccccn2)Oc2ccc(O)c1c2 (stereo not shown) — Emax (Lassa mammarenavirus; viral replication; Huh-7; concentration not given): 56.8%
COc1cccc([C@@H](C)NCCCc2ccccc2Cl)c1 — EC50 (SARS-CoV-2; viral replication, GFP plate reader screen; cell-based): 16.6 µM
Cc1cccnc1C(=O)N(CC#Cc1ccccc1)CC(C)C — remaining activity (Lassa mammarenavirus; viral replication; Huh-7; 10 µM, 72 h): 12%
COc1ccc2c(Sc3ccc(Cl)cc3)c(C(=O)NCCCN3CCCCC3)[nH]c2c1 — maximum response (SARS-CoV-2; cytopathic effect; USA_WA1/2020; retest, 8-point, duplicates): 90.1%
CCOC(=O)CN1CCC2(CCCN(C(=O)c3cc(F)ccc3F)C2)C1 (stereo not shown) — remaining activity (Lassa mammarenavirus; viral replication; Huh-7; 10 µM, 72 h): 50%
Nc1ncnc2c([C@@H]3N[C@H](CO)[C@@H](O)[C@H]3O)c[nH]c12 — inhibition (Marburg marburgvirus; virus production; HeLa, Musoke; 25 µM): 100%
CN(C)c1cccc(C(=O)NCC2CCN(c3cc(-c4ccc(Cl)cc4)n[nH]3)CC2)c1 — efficacy (SARS-CoV-2; cytopathic effect; USA_WA1/2020; round 2, 5-point): 74.4%
Cc1cc(/C=C/c2ccccc2)cnc1N — remaining activity (Lassa mammarenavirus; viral replication; Huh-7; 10 µM, 72 h): 45%
O=C(NCCCN1CCCCC1)c1cc(Sc2ccc(Cl)cc2)nc2ccccc12 — efficacy (SARS-CoV-2; cytopathic effect, cell-based CPE; USA_WA1/2020; round 2, 5-point dilution): 108%
Clc1cnn(CCCCN2CCN(c3ncccn3)CC2)c1 — EC50 (SARS-CoV-2; viral replication, high-content imaging screen; cell-based): > 100 µM
CCCCN(CCCC)CCCNC(=O)c1cc(-c2ccc(Cl)s2)nc2ccccc12 — efficacy (SARS-CoV-2; cytopathic effect; USA_WA1/2020; retest, 8-point, duplicates): 63.8%
Cc1nc2n(n1)CC(=O)N[C@@H](C(C)C)CN(Cc1ccncc1)CC(=O)N[C@@H](CC(C)C)c1nc(cs1)C(=O)N[C@H]2Cc1ccccc1 — remaining activity (Lassa mammarenavirus; viral replication; Huh-7; 10 µM, 72 h): 111%
O=C(NCc1ccccc1Cl)C1CCCN(Cc2cccc(-c3ccc(F)cc3F)c2)C1 (stereo not shown) — maximum response (SARS-CoV-2; cytopathic effect; USA_WA1/2020; retest, 8-point, duplicates): 44.2%
Cc1cnn(CCC(=O)N2CC(=O)N[C@@H](CC(C)C)c3nc(cs3)C(=O)N[C@@H](Cc3ccccc3)c3nc(C)nn3CC(=O)N[C@@H](C(C)C)C2)c1 — remaining activity (Lassa mammarenavirus; viral replication; Huh-7; 10 µM, 72 h): 93%
CN1CCCC(CN2c3ccccc3Sc3ccccc32)C1 (stereo not shown) — EC50 (SARS-CoV-2; viral replication, high-content imaging screen; cell-based): > 100 µM
CNC(=O)[C@@H](NC(=O)[C@H](CC(C)C)[C@H](O)C(=O)NO)C(C)(C)C — viability difference (Daboia russelii; C2C12; 100 µM, added: Daboia russelii venom MH; reference: venom alone): -26.1%
COc1ccc(CC(=O)NC2CCN(Cc3ccc(-c4ccccc4OC)cc3)C2)cc1 (stereo not shown) — efficacy (SARS-CoV-2; cytopathic effect; USA_WA1/2020; retest, 8-point, duplicates): 44.2%
Cc1[nH]c(/C=C2\C(=O)Nc3ccccc32)c(C)c1CCC(=O)O (single isomer, unassigned) — EC50 (SARS-CoV-2; viral replication, high-content imaging screen; BetaCov/Belgium/GHB-03021/2020; cell-based): > 50.1 µM
Nc1nccc(N2CCOC(CC(c3ccccc3)c3ccccc3)C2)n1 (stereo not shown) — remaining activity (Lassa mammarenavirus; viral replication; Huh-7; 10 µM, 72 h): 46%
CCN(CCO)CCCC(C)Nc1ccnc2cc(Cl)ccc12 (stereo not shown) — EC50 (SARS-CoV-2; viral replication, GFP plate reader screen; cell-based): 11.6 µM
CC1CCCN(CCCNC(=O)c2cc(Sc3ccc(F)cc3)nc3ccccc23)C1 (stereo not shown) — maximum response (SARS-CoV-2; cytopathic effect; USA_WA1/2020; retest 8-point): 92.9%
C[C@H](Cc1ccc(O)c(O)c1)[C@@H](C)Cc1ccc(O)c(O)c1 — EC50 (SARS-CoV-2; viral replication, GFP plate reader screen; cell-based): > 100 µM
COc1cccc(-c2ccccc2NC(=O)C2CCN(Cc3ccccc3F)CC2)c1 — efficacy (SARS-CoV-2; cytopathic effect; USA_WA1/2020; round 1, 5-point): 99%
CC(=O)c1ccc2c(c1)N(CCCN(C)C)c1ccccc1S2 — EC50 (SARS-CoV-2; viral replication, GFP plate reader screen; cell-based): > 100 µM
CCc1c(C(=O)C(N)=O)c2c(OCC(=O)O)cccc2n1Cc1ccccc1 — time to death (Daboia russelii; North population, mouse; 120 µg, venom preincubated, observed to 24 h): > 24 h
